Published values gathered from unrelated publications.
Parts stem from different laboratories: compare values within a part only.

Set 1 — method: RNA Bind-n-Seq; molecule type: RNA; sample: in vitro; tested at: not given; relative to: input RNA pool; direction: higher = stronger binding
Target: RING finger protein unkempt homolog, zinc fingers 1-6, GST-SBP tag (UNK, Homo sapiens, UniProt Q9C0B0, residues 30-357)
Sequence of UniProt Q9C0B0 (30-357, looked up): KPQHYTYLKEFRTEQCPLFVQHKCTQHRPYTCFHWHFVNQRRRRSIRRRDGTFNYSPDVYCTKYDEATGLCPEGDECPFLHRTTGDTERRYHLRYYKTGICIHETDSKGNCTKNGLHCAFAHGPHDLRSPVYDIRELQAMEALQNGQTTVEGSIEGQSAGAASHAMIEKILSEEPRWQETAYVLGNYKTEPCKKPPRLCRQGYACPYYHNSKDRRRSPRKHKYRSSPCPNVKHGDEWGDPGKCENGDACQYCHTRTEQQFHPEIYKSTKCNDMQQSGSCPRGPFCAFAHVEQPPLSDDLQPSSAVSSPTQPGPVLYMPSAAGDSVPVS
Setting: RNA with constant flanks, human and mouse sites, ends assumed
With `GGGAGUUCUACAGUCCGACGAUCGUCACCCAGCUGUUGCAGUCUUCGCAUAAGGAAUCCAGCUUCGAUGUCAUUCUGUCGGGUGUAGUCCCAGGAAGCACCUCUCUGCACAGUGCUGAGGUUCUGGCUGAGAUGGCCCGGAUCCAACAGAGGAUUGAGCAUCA` the bound/input enrichment was 0.103 ratio.
`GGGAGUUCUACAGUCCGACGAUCGAUAAUCCUGUUUAAACUGGUGCUGUGUACAUGGGAUGUACUGAUACAGAACUUCUCUUCUAGGGAAAGCUAAUCAUUUGUCAAUGAUUUAAAAAUUAUUGUCACUACUGUUGAUUACUGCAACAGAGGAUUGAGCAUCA` has a bound/input enrichment of 1.19 ratio.
`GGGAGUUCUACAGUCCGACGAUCUGGCUUAAUCAAAUCAUGCCUAAGAAAGACCCUGUGAAAAUUGUCCGAUGCCAUGAACACAUAGAAAUCCUUACAGUAAAUGGAGAAUUACUGUUUUUUAGACAAAGAGAAGGGCCUUUUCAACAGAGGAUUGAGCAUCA` gave a bound/input enrichment of 0.942 ratio.
With `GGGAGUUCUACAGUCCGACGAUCACCUUGAAGGAUAGGUUUUCUUUCUGAUGGGCCAAAGUACUGGAAGCAAAGUACUUUCUGUAGUAGCCCAUGCUUACUUGUGACACUUUUAAUAUGAAAUGUAUCCCCAGACCAAAUGUCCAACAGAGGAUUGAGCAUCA` the bound/input enrichment was 0.23 ratio.
With `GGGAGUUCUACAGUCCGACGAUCCAGGGAGAUCAGAUCUUAUCUGUGAAUGGGGAGGACAUGAGAAAUGCCUCACAGGAGACAGUGGCCACCAUCCUCAAGUGUGCACAGGGACUUGUGCAGCUAGAGAUUGGAAGACUCCGACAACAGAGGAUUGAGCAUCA` the bound/input enrichment was 0.134 ratio.
`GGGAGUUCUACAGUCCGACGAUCAAUUCACAGGAAGUGAGAUUCGUGUGAGGGAUGACAAGAUGCCUUUGGCGCACCUUGCAAUAGCUGUUGAAGCUGUUGGUUGGGCACAUCCAGAUACAAUCUGUCUCAUGGUUGCAAACACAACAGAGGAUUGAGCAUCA` gave a bound/input enrichment of 0.116 ratio.
For `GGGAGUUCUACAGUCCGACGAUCAUUGCAGCUAAAUACCAGUUGGAUCCUACUGCUUCUAUCUCUGCAAAGGUCAACAACUCUAGUUUAAUUGGAGUGGGCUAUACUCAGACUCUGAGGCCUGGUGUGAAGCUUACACUGUCUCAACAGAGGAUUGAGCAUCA`, the bound/input enrichment was 0.181 ratio.
`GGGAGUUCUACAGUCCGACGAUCUCUGUUCGAAGAUUGGACCCAGAAUACUGGAAGACUAUACUGAGUUGUAUAUAUGUUUUUAUAGUAUUUGGAUUUACAUCUUUCAUUAUGGUUAUAGUCCAUGAGCGAGUGCCUGACAUGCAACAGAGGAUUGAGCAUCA` has a bound/input enrichment of 0.24 ratio.
`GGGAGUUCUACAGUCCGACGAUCUACUACUUAUCUGUGUUUCUGGAGCUCUCAGCUGGCUUGCCUGAAACUUCUAAAUAUGAAUAUCGUGUAGAGAUGGUUCACCAGUCCUGUAAUGAUCCUACAAAAAAUAUCAUUCGAGAACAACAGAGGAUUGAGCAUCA` gave a bound/input enrichment of 0.238 ratio.
For `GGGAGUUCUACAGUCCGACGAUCAAAGUAUUGGGCACUAGGAAAUUGAUGCAUGUUGCUUAUGAAGAAUUUGAAAAAGUUAUGGUAGCAUGCUUUGAAGUUUUUCAGACUUGGGAUGAUGAGUAUGAGAAACUUCAGGUAUUGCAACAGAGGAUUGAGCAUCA`, the bound/input enrichment was 1.21 ratio.
For `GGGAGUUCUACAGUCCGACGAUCGACUCUAAGCUGACAAGACUCUUGCAGGAUUCCCUUGGGGGUAACAGCCAAACCAUCAUGAUAGCAUGCGUCAGCCCUUCAGACAGGGAUUUCAUGGAGACGUUAAACACUCUGAAGUACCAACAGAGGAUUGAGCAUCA`, the bound/input enrichment was 0.242 ratio.

Set 2 — method: aptamer microarray, sandwich; molecule type: DNA with 2'F-ANA; sample: in vitro; tested at: 200 nM; added: Cy3 exosite-II aptamer, 400 nM; direction: higher = stronger binding; strand: GGTTGGTGTGGTTGG
Target: Prothrombin, mature alpha-thrombin (F2, Homo sapiens, UniProt P00734)
Setting: whole 15-mer aptamer, many near background
`2'F-ANA at 3 6 8 10 11 13 14` — result for “mean fluorescence intensity”: 339 a.u.
Under “mean fluorescence intensity”, `2'F-ANA at 1 2 3 5 8 10 11 13` is recorded as 49.2 a.u.
`2'F-ANA at 1 2 3 4 5 10 11 12 13 14 15`: “mean fluorescence intensity” 45.4 a.u.
Under “mean fluorescence intensity”, `2'F-ANA at 3 6 7 12 14 15` is recorded as 640 a.u.
Under “mean fluorescence intensity”, `2'F-ANA at 1 2 3 4 5 6 7 10 14 15` is recorded as 47.5 a.u.
Under “mean fluorescence intensity”, `2'F-ANA at 1 5 10 12 15` is recorded as 50.9 a.u.
For `2'F-ANA at 2 3 4 5 7 8 13 14 15`, “mean fluorescence intensity” read 114 a.u.
`2'F-ANA at 1 2 3 6 9 10 11 12 14 15`: “mean fluorescence intensity” 87.2 a.u.
For `2'F-ANA at 1 2 5 6 7 10 11 12 14 15`, “mean fluorescence intensity” read 49.6 a.u.
Under “mean fluorescence intensity”, `2'F-ANA at 1 2 9 11 12` is recorded as 342 a.u.
For `2'F-ANA at 1 2 3 4 5 6 9 12 13 15`, “mean fluorescence intensity” read 71.2 a.u.
`2'F-ANA at 3 4 7 9 10 12 14 15` — result for “mean fluorescence intensity”: 215 a.u.
For `2'F-ANA at 1 2 3 5 7 10 13 15`, “mean fluorescence intensity” read 54.3 a.u.
For `2'F-ANA at 4 5 14`, “mean fluorescence intensity” read 46.6 a.u.
For `2'F-ANA at 2 3 5 6 9 11 13 14`, “mean fluorescence intensity” read 50.1 a.u.
For `2'F-ANA at 1 3 4 5 7 8 10 11 15`, “mean fluorescence intensity” read 53.8 a.u.
`2'F-ANA at 3 4 8 9 11 13 14 15` — result for “mean fluorescence intensity”: 279 a.u.
Under “mean fluorescence intensity”, `2'F-ANA at 1 3 5 8 9 10 13 14 15` is recorded as 49.1 a.u.
For `2'F-ANA at 1 2 4 9 10 11 12`, “mean fluorescence intensity” read 68 a.u.

Set 3 — method: RNA Bind-n-Seq; molecule type: RNA; sample: in vitro; tested at: 365 nM; relative to: no-protein control; direction: higher = stronger binding
Target: RNA binding protein fox-1 homolog 2, RRM domain, GST-SBP tag (RBFOX2, Homo sapiens, UniProt O43251-10, residues 100-194)
Setting: natural RNA segment, single round, ends assumed
Target sequence (chain): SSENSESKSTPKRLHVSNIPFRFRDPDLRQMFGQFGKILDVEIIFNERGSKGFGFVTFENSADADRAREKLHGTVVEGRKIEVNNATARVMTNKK
`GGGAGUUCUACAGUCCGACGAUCGUAUCACGUUUUCAGCCAUGUUGUGUAAGAGACCUGCUUUCAAGUGUGGUUGUAAAAGCAAGCCCAGGAAAGGUGACCUCAUUCUCACGGACUGUGCUGUGCAGCUUUCCUGGAAUUCUCGGGUGCCAA` — result for “RBNS enrichment (R)”: 0.474.
`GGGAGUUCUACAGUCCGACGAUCCUGGAGCUGGGAUGCAAUGUAGGCUGAGGGAAAGACGUCAGGUUCCUUUAAUCACAGUCACUGUUUGUUUACCUUGAGCAGUAAACCCGAAGUCAGCCUGCUCUACUACUUGGAAUUCUCGGGUGCCAA`: “RBNS enrichment (R)” 0.808.
Under “RBNS enrichment (R)”, `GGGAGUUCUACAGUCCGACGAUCUCUUCUCACCCUCCUCCCUCCCCUUAGCCAUCACUUCUGGGAAGUAAAGAACUUGACUUAGUGCCGGGCUGUGUGCUUGGUUUGUCUUCUUUGCGCUGUCGGACCUAAGCUGGAAUUCUCGGGUGCCAA` is recorded as 0.47.
Under “RBNS enrichment (R)”, `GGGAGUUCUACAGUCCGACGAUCAUUGGCCUGGCACAUGCUUUAUGUUAGGCCUCCCGUUGGGAUGGCUGAGAAUCAUGAAAGACAGAUCCUCCGCUAGCCUCUGUGGGUCAAGUUUCUGGACACCAAGUCUCUGGAAUUCUCGGGUGCCAA` is recorded as 0.225.
`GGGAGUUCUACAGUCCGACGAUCUUUGAAAGACAUUUUUCAUUGUUCCAUUACCUAUAGAAAUGGUAUUUCAUGACCUAGGGAAAAAGGAAUUACUCCUUUUUGUAGACUCAUACCUGAAAGCAGUGAUUUACUGGAAUUCUCGGGUGCCAA` — result for “RBNS enrichment (R)”: 0.219.
`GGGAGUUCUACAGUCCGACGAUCUCCUUACCCAGGGUAUCAUAGUUCUAAGAAUGAAAGCACCUUAAAUGCCUUGCACAGAACCAAUUUUUUUUAACUACUGGCCUAUUUUAAUGGUGGUAAAGAGCAUGUUUUGGAAUUCUCGGGUGCCAA`: “RBNS enrichment (R)” 17.1.
`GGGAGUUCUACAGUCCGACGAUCUCCCGCACCCCUAGGUUUGUAUUCUGGUUCUACUGGCUUUUCUCAGUGGGACACCAAGGUAGAAAGGGAGUAAGAAUGGUUUUCCAGUGAGUUGAAUGUGCACACGUUUAUGGAAUUCUCGGGUGCCAA`: “RBNS enrichment (R)” 1.96.
`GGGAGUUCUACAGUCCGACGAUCUGCACUUUCUGCAGGAACACCUGUGACCUCAGUCCCGACUCCUGACGCCACCGCUGCUCUUCUUGCGUUUUUGUAAUCUUUUCAUUUUUGAAGCUUCCAAUUUGCUUGCUUGGAAUUCUCGGGUGCCAA`: “RBNS enrichment (R)” 2.57.
Under “RBNS enrichment (R)”, `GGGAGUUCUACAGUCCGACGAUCACAAUCUGAAUAGUGUGCUGUCAGGAGUGGUUUGUCGGAGCAGCGCUUGCCACAAUGAUUCCGUGUUUUUACAGGGCAUUCAACUGCUGCAAAGGUUAACAUAUAAUGCCUGGAAUUCUCGGGUGCCAA` is recorded as 1.02.
`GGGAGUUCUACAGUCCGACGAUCGCUGCUUGAUUACAAGUGCCAGGAAAACGACUGUUAUCCACUGCGUACUACAUGUUACAUGCUGCAUACUGUAUGUUACACACUGCAUACUAUGUGUUAUACACUGCAUAUGGAAUUCUCGGGUGCCAA` — result for “RBNS enrichment (R)”: 0.606.
`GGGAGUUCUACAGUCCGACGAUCUAUUUUAAAGCAGAUUUCUUCAGAAGCUAUCAUGGUCCCAGGGACUAGGUAGAAUUUUUAAGUCUAACGUGAACUUUAGCUUUAUCAGACAUUUUUGUUACUAGUGCCUAUGGAAUUCUCGGGUGCCAA`: “RBNS enrichment (R)” 0.502.
For `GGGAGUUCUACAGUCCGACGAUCUGCUAAGCAGGGCUUUGAAUACUUCUCCUUUAGCACUGGAGUAACAUUUAGGCAUGAGCUCUUGGCAGGAGUGGGCUCUGAGCAGGUGUCAUAUUCAUUCUUUACAAACCUGGAAUUCUCGGGUGCCAA`, “RBNS enrichment (R)” read 1.13.

Set 4 — method: RNAcompete; molecule type: RNA; sample: in vitro; tested at: 20 nM; setting: 7-mer, probes averaged, single round; relative to: mean of 7-mers; direction: higher = stronger binding
Target: PABPC1L2, full length, GST fusion (mouse, UniProt A0ABA7IW68)
Target sequence (chain): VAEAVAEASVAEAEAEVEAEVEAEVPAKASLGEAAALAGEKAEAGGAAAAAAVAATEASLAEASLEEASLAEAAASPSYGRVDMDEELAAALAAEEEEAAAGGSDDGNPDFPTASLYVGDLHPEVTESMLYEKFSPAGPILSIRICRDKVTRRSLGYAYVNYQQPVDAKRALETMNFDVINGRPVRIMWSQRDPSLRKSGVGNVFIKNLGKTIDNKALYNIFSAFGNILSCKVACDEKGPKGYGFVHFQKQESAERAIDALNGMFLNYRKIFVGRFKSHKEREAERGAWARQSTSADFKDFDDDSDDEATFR
`GGGUAAC` has a 7-mer Z-score of 0.151.
The 7-mer Z-score of `UGCGAAG` is reported as -0.142.
`GCACUCC` gave a 7-mer Z-score of -0.228.
`GCUGGUA` has a 7-mer Z-score of 0.00436.
The 7-mer Z-score of `AGACAAA` is reported as 1.42.
The 7-mer Z-score of `ACACGUA` is reported as -0.0518.
For `CUGAAUA`, the 7-mer Z-score was -0.0174.
With `AGAUCGU` the 7-mer Z-score was -0.443.
The 7-mer Z-score of `ACGUGUU` is reported as -0.306.
The 7-mer Z-score of `AAUCGAA` is reported as 0.593.
With `CUCGUGG` the 7-mer Z-score was -0.208.
`UCUGCUA` has a 7-mer Z-score of -0.325.
For `UGCAAUU`, the 7-mer Z-score was -0.191.
The 7-mer Z-score of `GUGAAGC` is reported as 0.144.
`CGGACAA` has a 7-mer Z-score of 0.32.
`GUGCACG` gave a 7-mer Z-score of -0.155.
`AUUUCGA` has a 7-mer Z-score of -0.213.
The 7-mer Z-score of `UUUACGC` is reported as -0.161.
`CUAUUUC` gave a 7-mer Z-score of -0.344.
`UAGCGAC` gave a 7-mer Z-score of -0.11.
The 7-mer Z-score of `CUUCGGU` is reported as -0.396.
With `CUGCGUC` the 7-mer Z-score was -0.365.
With `CAGAGUU` the 7-mer Z-score was -0.228.

Some of these lines once more (set 4):
The 7-mer Z-score of `AGACAAA` is reported as 1.42.
`CUAUUUC` gave a 7-mer Z-score of -0.344.
The 7-mer Z-score of `UGCGAAG` is reported as -0.142.
With `CAGAGUU` the 7-mer Z-score was -0.228.
`GCUGGUA` has a 7-mer Z-score of 0.00436.
`CGGACAA` has a 7-mer Z-score of 0.32.
